Measurements gathered from unrelated publications.
Parts stem from different laboratories: compare values within a part only.

Sample 1
Target: Runt-related transcription factor 3, Runt domain (RUNX3, Homo sapiens, UniProt Q13761, residues 53-186)
Sequence of UniProt Q13761 (53-186, looked up): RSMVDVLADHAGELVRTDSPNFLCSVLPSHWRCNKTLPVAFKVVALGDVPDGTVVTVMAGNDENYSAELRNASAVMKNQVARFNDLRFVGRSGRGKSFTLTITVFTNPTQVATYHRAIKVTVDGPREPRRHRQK
Method: protein-binding microarray
Form: hairpin DNA
Sample: in vitro
Tested at: not given
Setting: whole hairpin DNA, median over replicate spots
Reference: not given
Direction: higher = stronger binding
| Oligonucleotide | median fluorescence [a.u.] |
| --- | --- |
| GAGGCCTGTTCGGGTTGGCCTCCTGGCCAACCCGAACAGGCCTCACACTC (5mC at 11 33) | 4790 |
| GAGGCCTGTCGCGGTGGGCCTCCTGGCCCACCGCGACAGGCCTCACACTC (5mC at 29) | 5310 |
| GAGGCCTGTCGCGGTTGGCCTCCTGGCCAACCGCGACAGGCCTCACACTC (5mC at 19) | 6120 |
| CTCAGTTCTGTGGGCTGGACTCCTGTCCAGCCCACAGAACTGAGACACTC (5mC at 33) | 4180 |
| GAGGCCCAACGGCAACAGCCTCCTGGCTGTTGCCGTTGGGCCTCACACTC | 4990 |
| GAGGCCGGTTGCGGTTGGCCTCCTGGCCAACCGCAACCGGCCTCACACTC (5mC at 38) | 10000 |
| GAGGCCCAACGGCAACAGCCTCCTGGCTGTTGCCGTTGGGCCTCACACTC (5mC at 10) | 5030 |
| CTCAGCGCTGTGGGCTGGACTCCTGTCCAGCCCACAGCGCTGAGACACTC (5mC at 38) | 4370 |
| GAGGCCTCGTGCGGTTGGCCTCCTGGCCAACCGCACGAGGCCTCACACTC (5mC at 36) | 6000 |
| GAGGCCGAACCGCAACAGCCTCCTGGCTGTTGCGGTTCGGCCTCACACTC | 7200 |
| GAGGCCTGTTGTGGTTGGCCTCCTGGCCAACCACAACAGGCCTCACACTC (5mC at 28) | 5760 |
| GAGGCCTGTCGCGGTTGGCCTCCTGGCCAACCGCGACAGGCCTCACACTC (5mC at 27) | 5360 |
| GAGGCCTGTCGCCGTTGGCCTCCTGGCCAACGGCGACAGGCCTCACACTC | 5200 |
| GAGGCCAGTTGCGGTTGGCCTCCTGGCCAACCGCAACTGGCCTCACACTC | 8350 |
| CTCAGTTGTGTGGGCTGGACTCCTGTCCAGCCCACACAACTGAGACACTC | 4380 |
| GAGGCCTGTCGCGGATGGCCTCCTGGCCATCCGCGACAGGCCTCACACTC | 4920 |
| GAGGCCTGTTGTGGTGGGCCTCCTGGCCCACCACAACAGGCCTCACACTC (5mC at 29) | 4990 |
| GAGGCCTGTTGTGGTTTGCCTCCTGGCAAACCACAACAGGCCTCACACTC | 5950 |
| GAGGCCTGTTGCGGCGGGCCTCCTGGCCCGCCGCAACAGGCCTCACACTC | 5800 |
| GAGGCCCGACCGCAACAGCCTCCTGGCTGTTGCGGTCGGGCCTCACACTC (5mC at 7) | 8760 |
| CTCAGTTCTGAGGGCTGGACTCCTGTCCAGCCCTCAGAACTGAGACACTC | 3850 |
| CTCAGTTCTGTGGGCTCGACTCCTGTCGAGCCCACAGAACTGAGACACTC (5mC at 17) | 4410 |
| GAGGCCTGTTGCGCGTGGCCTCCTGGCCACGCGCAACAGGCCTCACACTC (5mC at 30) | 5190 |
| GAGGCCTCGCGCGGTTGGCCTCCTGGCCAACCGCGCGAGGCCTCACACTC (5mC at 8 36) | 5730 |
| GAGGCCTGTCCGGGTTGGCCTCCTGGCCAACCCGGACAGGCCTCACACTC | 5170 |

Sample 2
Target: RING finger protein unkempt homolog, zinc fingers 1-6, GST-SBP tag (UNK, Homo sapiens, UniProt Q9C0B0, residues 30-357)
Method: RNA Bind-n-Seq
Form: RNA
Sample: in vitro
Tested at: not given
Setting: RNA with constant flanks, human and mouse sites, ends assumed
Reference: input RNA pool
Direction: higher = stronger binding
Shared flanks, not repeated: GGGAGUUCUACAGUCCGACGAUC … CAACAGAGGAUUGAGCAUCA
Residues (chain): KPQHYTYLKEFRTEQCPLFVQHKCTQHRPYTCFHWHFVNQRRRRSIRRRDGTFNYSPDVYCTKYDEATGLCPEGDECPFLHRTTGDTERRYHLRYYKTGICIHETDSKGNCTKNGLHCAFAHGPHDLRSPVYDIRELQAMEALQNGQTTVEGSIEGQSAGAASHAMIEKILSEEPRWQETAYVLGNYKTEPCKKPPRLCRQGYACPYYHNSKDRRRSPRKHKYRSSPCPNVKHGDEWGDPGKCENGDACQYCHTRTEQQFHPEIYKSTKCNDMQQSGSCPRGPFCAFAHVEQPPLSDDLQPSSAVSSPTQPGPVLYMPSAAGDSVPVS
| Oligonucleotide | bound/input enrichment [ratio] |
| --- | --- |
| AAUUUGUCUUGUGAUUUUAAACUUAUGAGUCAAGAAGGGUCUCUUCCUUUAUCAUUGCCUUUUAGGAAAUUUUCCACAUCUUUCAGUGUUUGAACUUACUUGUGCUUGAGAUUCUACAGU | 0.186 |
| UAUACAUUUGUCUAACUUUGUGGUAAGUGAUCUGAAUUUUAUGUUAGGGUUAGGAUAUUUUUGUGAAACAUGGAUAUUUUUUUUUUGGUAAUUAUAUAAUUGAGAGUUUGGAAUGAAAUC | 13.8 |
| CAAAGCAUCCUAACAGGGUCGUUCCCAUACACAUUUGACCUGGUCAGCCUUUUCCAGGUGAAUAGCCCCAGUUCUGACAUAAAGAAAGUUUUAUUUGUAUUUUACUACUGUUUGGUCAAU | 0.909 |
| UCAUUUGGGCGUGUCAGAGAGUCGUUACCUGUCAAGUAUCACCUACAGAAUAAGACCGACUUAGUUCAAGAUGUAGAAAUUUCUGUGGAGCCCAGUGAUGCCUUCAUGUUCUCAGGUCUC | 0.358 |
| AUUGAAACAAAAGUGUUAUCAGAGCUCGGUGUAGAUGCCCAGAGUCUUUCAGCCAUGGAGAUCAGGGAGAAAGCCAGAUCAUUUGCUCAGGCAGCCAUUGAAAAGCAGAAAUCGGCGUUU | 0.0645 |
| GACAUUGCAGAGCAUGCUUUGAAAAAUUCUUUAGAAACAGAUAUUCCUACUGUGAAUAUUUUAGCUGAUGAAGAAUUCCUUCCCUUCCAAGAAAACACGUUUGACCUGGUGGUUAGCAGC | 0.772 |
| GGUAUGUUACAGUCAUAGCUCAUAAGUAGCCCAUCUCUAAUUUGUAUUGUCACAAGGCCAGAAGCCAGCCUCACUCUUUCCAGCUGACAUUGAGGUGGGAGAGAAUCUCAGGGCUCCCUG | 0.232 |
| GGUGAUUAUAGCAAUCAGCAGAGUGGUUAUGGGAAAGUAUCCAGGCGAGGUGGACAUCAAAAUAGCUACAAACCAUACUAAAUUAUUCCAUUUGCAACUUAUCCCCAACAGGUGGUGAAG | 1.84 |
| UCUAGCUUACCAGGGGACUUACACGUGACCAGUGGCCCCGAGAGCCCUUUCAACAAUAUAUUUAAUGAUGUGGACAAAUCGGAAGAUUUGCCCAGUCACCAAAAAAUAUUCGACUUAAUG | 0.174 |
| AAUAAUUCUUUAAUGCUUGACAAAAUUAUUGGUGAAAAAAGGAGGCGAAUACAGAUCACAAUAUUGUCAUACCACUCCUCAAUUGGAGUAAGAAAAGAUGAACUGGUUCAUGGGUAUAUA | 0.289 |
| UUAAGAAGAAUGCCUCAUAUUAAACAUGUGGACCUAAGACUGAACAUACUCAGAAAGCUUAUGGCAGAUGAGGUGGACUUUGUGCAACAUGUCACUCAGCUUGACCUGCGAGACAAUAAG | 0.179 |

Sample 3
Target: RNA binding protein fox-1 homolog 2, RRM domain, GST-SBP tag (RBFOX2, Homo sapiens, UniProt O43251-10, residues 100-194)
Method: RNA Bind-n-Seq
Form: RNA
Sample: in vitro
Tested at: 365 nM
Setting: natural RNA segment, single round, ends assumed
Reference: no-protein control
Direction: higher = stronger binding
Shared flanks, not repeated: GGGAGUUCUACAGUCCGACGAUC … UGGAAUUCUCGGGUGCCAA
Residues (chain): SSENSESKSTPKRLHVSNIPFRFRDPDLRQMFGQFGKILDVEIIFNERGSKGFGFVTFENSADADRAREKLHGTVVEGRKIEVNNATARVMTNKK
| Oligonucleotide | RBNS enrichment (R) |
| --- | --- |
| UCUAACUCGAUCAGUGUCUUUUCAGCACUUUGGAGCAUUUCCUUGGCUCAUCUAGUCUUCCUUUUGUAGCGCAUGGUUGGGAGGAAAAAGUGCAUGCCUCUGUACGUCAC | 20.7 |
| UUUAAAAACAUUCCCCAAUUAUCUUAUUUAAUUUUUGCAAUUAUUCUAAUUUUAUAUAUAGAGAAAGUGACCUAUUUUUUAAAAAAAUCACACUCUAAGUUCUAUUGAAC | 1.9 |
| UGUCGCCAGUUCUCACUGUCUGUCAGCUCACUGAGCUGCCCUUCAUCCAUGGUCCUUGAGCUCCAGAGCGGAGGGAGAUUCUCUCAGCAGGCCCAUCUCACAAAGACUGG | 0.262 |
| UGGACUCAGUUUAACCUGUAUCCACUCUCCUUAGCCAAAGUGUGCGUCUGUCGAAAGCUGAAGUGCAGAGGGCAGGGAAGCAAACACACCAGAGCUCUUUCUGGUCAGAU | 0.35 |
| GCUCUGCUUUUCUGCCUUCAGUUAUCUACAGAACAGCAGGUUUGCCUGAAGUGCAGCCUUCACCAGGGCAUUGUCUCUGCUGGUGUCAGUGACCCACAUUGAUGAGUGGU | 0.459 |
| GGGACCAAGGCUGGAAAAGUGAUGAAGCUUCCUCCCACUGCUGCAAGAAAAAGGCAGAGGCUUCAGUUUUCUCUCGCCCAAGUCCCUUGCUCCUCCCAACUGCGGCUAAG | 1.3 |
| CCUCCAGGACAGGAGAUCUGGGAUGCCUGGCUGCUGGAGUACAUGUGUUCACAAGGGUUACUCCUCAAAACCCCCAGUUCUCACUCAUGUCCCCAACUCAAGGCUAGAAA | 0.565 |
| GGCAGGAAGAUACAAGUCUUUUUAAAGUUUACUGAUGCUUAACUCUGUGGGCUCGUAGUCCUCUGAAAGUGGUUGUUUUCCUAUGCACAGUGAGCUCAGAAAUAAAAACU | 0.366 |
| AGGGGCUUUGGAAAGAGUAGGAGGGGUGGGCUGGAUCGGAAGCAACACCCAUUUGGGGUUACCAUGUCCAUCCCCCAAGGGGGGCCCUGCCCCUCGAGUCGAUGGUGUCC | 0.365 |

Sample 4
Target: Centromere-binding protein 1, full length, His-tagged (CBF1, Saccharomyces cerevisiae, UniProt P17106, residues 1-351)
Sequence of UniProt P17106 (whole entry, looked up): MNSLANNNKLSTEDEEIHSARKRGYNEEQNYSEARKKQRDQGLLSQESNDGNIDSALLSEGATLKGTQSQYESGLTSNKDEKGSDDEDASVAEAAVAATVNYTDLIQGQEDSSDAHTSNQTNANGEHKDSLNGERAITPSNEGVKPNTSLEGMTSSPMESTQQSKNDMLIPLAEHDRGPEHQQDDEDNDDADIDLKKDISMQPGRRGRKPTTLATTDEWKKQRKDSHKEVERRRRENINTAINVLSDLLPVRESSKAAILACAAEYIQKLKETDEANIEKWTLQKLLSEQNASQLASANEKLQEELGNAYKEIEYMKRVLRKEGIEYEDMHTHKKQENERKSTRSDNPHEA
Method: competition protein-binding microarray
Form: double-stranded DNA, one strand shown
Sample: in vitro
Tested at: 2 µM
Setting: whole 60-bp probe, lowest competitor level
With: Pho4 competitor, 0.05 µM
Direction: higher = stronger binding
Shared flanks, not repeated: … GTCTTGATTCGCTTGACGCTGCTG
| Oligonucleotide | fluorescence intensity [a.u.] |
| --- | --- |
| ATTTTTTTCTTGAAACACGTGAAGCCGAGGAGACCA | 1320 |
| TGTTCACCCTCCTCTCACGTGTATCTGACTCGTATT | 888 |
| TGCGCAACAACTTGCAGGGTGGGTGTATGTCTAGAA | 62.2 |
| AGTATCATAGGGTCCCACGTGCAAAGTCCACCGTCT | 835 |
| CTTCTGTAAATTTGACTTGTGGGTGGACGCGCCCCG | 80.6 |
| CTGGACGGCAGAAAGCACGCAGGCAGGGGGCCTCTG | 63.3 |
| AGATTTATGGCTTTCCATGTGGTTAAAGAAAAATTG | 115 |
| AAAGCGGTAATTTTTCACGTGTTCTCACATATCTAT | 1660 |
| TGCGCAACAACTTGTCACGTGGGTGTATGTCTAGAA | 4240 |
| CTCCACTTACTTGTAATACTTTATTATTTTTCACTT | 90.3 |
| AAGATGAGCTAAACTCTCGTGGATTAAATTTAAGCG | 106 |
| AAAGCGGTAATTTGCATTGTGGGTGCAGATATCTAT | 82.7 |
| TTGATCCAAGAGCACTCTGTGACGAATTCTCCTCTA | 51.8 |
| TTTGACTGCGTCGCGGGCGTGCTGTACGACCTCGAC | 47 |
| GAAGGAGGACTTTCCCTTGTGACAGTCTTGACTTTT | 73.7 |
| CGGGAACACTACGCCAACGTGATGGGCAATTGTGCT | 229 |
| CGTCCTAGTGATTGGCACGTGGGTGCCATGAGGAAG | 1100 |
| GTCTTGTCTCATTTTCACGTGGAATTCCCCACTTCA | 373 |
| TAGGGCTACCTTTGTCATGCCCAGGAAAACCGGATT | 60.4 |
| ACTACATGCCAGCAGCCCGTGCGGATGCCAAATTTG | 64.7 |
| TGCGCAACAACTTTTCACGTGTCTTTATGTCTAGAA | 1010 |
| GCAGGTATGTTTTTCACCGTGAAGATGGACGCATCT | 89.6 |
| CATGAATGTGGTACCCACGTTCTGCGTTAGGACTGT | 87.8 |
| CTTGTCAAAATCCGTCACGTGGTGAAGGGTCTGGTT | 5000 |
| CTTTCCCGATCTTGGTTGGTGGGTGTAGCACATTTG | 66.1 |

For quick reference, copied from above (sample 4):
| Oligonucleotide | fluorescence intensity [a.u.] |
| --- | --- |
| AAGATGAGCTAAACTCTCGTGGATTAAATTTAAGCG | 106 |
| AAAGCGGTAATTTGCATTGTGGGTGCAGATATCTAT | 82.7 |
| TTGATCCAAGAGCACTCTGTGACGAATTCTCCTCTA | 51.8 |
| TTTGACTGCGTCGCGGGCGTGCTGTACGACCTCGAC | 47 |
| GAAGGAGGACTTTCCCTTGTGACAGTCTTGACTTTT | 73.7 |
| CGGGAACACTACGCCAACGTGATGGGCAATTGTGCT | 229 |
| CGTCCTAGTGATTGGCACGTGGGTGCCATGAGGAAG | 1100 |
| GTCTTGTCTCATTTTCACGTGGAATTCCCCACTTCA | 373 |
